Assay results collected from several papers.
Every numbered part comes from another study and shows a few of its results, in no order.

Set 1 — technique: protein-binding microarray; molecule type: double-stranded DNA, one strand shown; medium: in vitro; tested at: 940 nM top; setting: 60-bp whole probe; with: salmon DNA 0.4 mg/ml; reference: random background probes; direction: higher = stronger binding
Target: Interferon regulatory factor 5, full length, phosphomimetic (IRF5, Homo sapiens, UniProt Q13568-2, residues 1-514, S451D/S453D/S456D/S462D)
Strand	fitted relative affinity
GCCTAGCACTTAGGTCTCCTACTGCTTCAGTGCTAGGTCTTGATTCGCTTGACGCTGCTG	-0.0737 z-score
GCCTAGCACTTGCATCTGGGTATTTTTCTGTGCTAGGTCTTGATTCGCTTGACGCTGCTG	0.491 z-score
GCCTAGCACTCAAAATTATCTTTAATACTGTGCTAGGTCTTGATTCGCTTGACGCTGCTG	0.351 z-score

Set 2 — technique: aptamer microarray, sandwich; molecule type: DNA with 2'F-ANA; medium: in vitro; tested at: 200 nM; with: Cy3 exosite-II aptamer, 400 nM; direction: higher = stronger binding
Target: Prothrombin, mature alpha-thrombin (F2, Homo sapiens, UniProt P00734)
Setting: whole 15-mer aptamer, many near background
Strand	mean fluorescence intensity
GGTTGGTGTGGTTGG (2'F-ANA at 5 8 10 11 14 15)	47.5 a.u.
GGTTGGTGTGGTTGG (2'F-ANA at 1 2 3 6 12 14 15)	117 a.u.
GGTTGGTGTGGTTGG (2'F-ANA at 3 9)	1210 a.u.

Set 3 — technique: protein binding microarray; molecule type: double-stranded DNA, one strand shown; medium: in vitro; tested at: not given; reference: not given; direction: higher = stronger binding
Target: Histone acetyltransferase KAT6A, both winged helices, GST fusion (KAT6A, Homo sapiens, UniProt Q92794, residues 1-181)
Setting: 8-mer, flanks averaged, mean of 2 arrays, mostly near background
Residues (chain): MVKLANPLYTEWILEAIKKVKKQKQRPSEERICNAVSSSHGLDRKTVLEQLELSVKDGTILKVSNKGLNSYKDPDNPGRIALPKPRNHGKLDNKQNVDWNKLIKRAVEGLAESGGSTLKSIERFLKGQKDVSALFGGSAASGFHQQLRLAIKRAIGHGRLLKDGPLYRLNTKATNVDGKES
Strand	E-score
GAGAGCAC	-0.0566
CACGTACG	0.108
CTGCATCA	-0.153
GGGCTTTA	-0.0128

Mixed results
Substance	target	assay	test system	conditions	scale	measurement	value
PhoQ, residues 284 288 289 292 302 303 GNNTDL	PhoP, residues 12 14 15 18 19 DLLYY (Escherichia coli, UniProt P23836)	Sort-seq, refers to: YFP reporter	E. coli	PhoQ-PhoP variant library, with: 10 µM Mg2+	reference: high Mg2+ state, higher = stronger signaling	fold induction	0.653

Some of these lines once more (set 3):
Strand	E-score
GAGAGCAC	-0.0566
CACGTACG	0.108
